Experimental data from different studies.
Parts stem from different laboratories: compare values within a part only.
Chain of UniProt Q00535 (whole entry, looked up): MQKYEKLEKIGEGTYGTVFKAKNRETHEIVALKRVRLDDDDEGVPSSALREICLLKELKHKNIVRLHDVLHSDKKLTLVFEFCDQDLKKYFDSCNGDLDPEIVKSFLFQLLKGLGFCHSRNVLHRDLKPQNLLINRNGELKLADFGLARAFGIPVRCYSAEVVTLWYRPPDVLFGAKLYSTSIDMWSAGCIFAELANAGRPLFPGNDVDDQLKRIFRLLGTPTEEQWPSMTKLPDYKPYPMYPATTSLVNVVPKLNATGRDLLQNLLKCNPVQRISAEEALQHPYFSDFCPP
Chain of UniProt P29317 (whole entry, looked up): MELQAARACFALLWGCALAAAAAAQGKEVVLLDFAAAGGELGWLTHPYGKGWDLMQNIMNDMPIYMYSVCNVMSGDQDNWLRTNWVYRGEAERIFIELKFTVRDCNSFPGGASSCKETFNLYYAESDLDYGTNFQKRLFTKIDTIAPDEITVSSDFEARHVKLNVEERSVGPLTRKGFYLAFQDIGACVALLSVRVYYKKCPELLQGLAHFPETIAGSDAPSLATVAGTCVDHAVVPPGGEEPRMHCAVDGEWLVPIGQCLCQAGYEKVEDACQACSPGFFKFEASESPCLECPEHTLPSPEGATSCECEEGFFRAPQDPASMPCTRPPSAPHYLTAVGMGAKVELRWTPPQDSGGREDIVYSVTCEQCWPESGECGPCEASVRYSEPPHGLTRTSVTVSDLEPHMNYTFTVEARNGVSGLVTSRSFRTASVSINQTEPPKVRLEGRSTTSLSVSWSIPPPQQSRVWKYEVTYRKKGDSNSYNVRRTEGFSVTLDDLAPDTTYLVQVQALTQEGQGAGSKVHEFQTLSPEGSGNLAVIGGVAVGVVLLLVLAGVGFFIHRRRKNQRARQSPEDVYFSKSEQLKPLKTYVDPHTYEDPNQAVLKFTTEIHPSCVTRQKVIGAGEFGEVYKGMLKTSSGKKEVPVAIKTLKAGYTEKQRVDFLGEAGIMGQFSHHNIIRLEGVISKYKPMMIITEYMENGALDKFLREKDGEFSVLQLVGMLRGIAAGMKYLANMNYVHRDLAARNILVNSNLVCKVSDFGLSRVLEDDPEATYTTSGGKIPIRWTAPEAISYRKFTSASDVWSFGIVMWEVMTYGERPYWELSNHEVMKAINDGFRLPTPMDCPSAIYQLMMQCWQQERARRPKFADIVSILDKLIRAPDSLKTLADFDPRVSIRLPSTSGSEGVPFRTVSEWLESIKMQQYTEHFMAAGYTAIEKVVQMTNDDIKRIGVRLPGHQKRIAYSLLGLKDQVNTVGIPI
Chain of UniProt Q08881 (whole entry, looked up): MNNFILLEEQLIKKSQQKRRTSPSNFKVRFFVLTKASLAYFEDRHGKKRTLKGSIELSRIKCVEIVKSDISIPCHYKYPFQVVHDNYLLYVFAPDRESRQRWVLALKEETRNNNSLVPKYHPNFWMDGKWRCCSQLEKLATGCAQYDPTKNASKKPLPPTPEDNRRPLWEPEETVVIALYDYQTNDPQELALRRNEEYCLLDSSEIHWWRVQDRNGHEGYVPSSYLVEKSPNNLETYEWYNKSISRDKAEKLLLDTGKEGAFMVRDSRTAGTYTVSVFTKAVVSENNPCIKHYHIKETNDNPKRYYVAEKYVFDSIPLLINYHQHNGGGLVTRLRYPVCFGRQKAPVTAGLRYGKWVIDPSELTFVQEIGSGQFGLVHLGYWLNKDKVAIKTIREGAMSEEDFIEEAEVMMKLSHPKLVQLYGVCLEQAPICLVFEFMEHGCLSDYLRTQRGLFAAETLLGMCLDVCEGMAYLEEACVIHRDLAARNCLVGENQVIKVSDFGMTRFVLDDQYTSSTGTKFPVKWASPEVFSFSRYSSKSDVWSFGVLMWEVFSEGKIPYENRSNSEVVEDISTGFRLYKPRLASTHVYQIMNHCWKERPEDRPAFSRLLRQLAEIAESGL
Chain of UniProt P53667 (whole entry, looked up): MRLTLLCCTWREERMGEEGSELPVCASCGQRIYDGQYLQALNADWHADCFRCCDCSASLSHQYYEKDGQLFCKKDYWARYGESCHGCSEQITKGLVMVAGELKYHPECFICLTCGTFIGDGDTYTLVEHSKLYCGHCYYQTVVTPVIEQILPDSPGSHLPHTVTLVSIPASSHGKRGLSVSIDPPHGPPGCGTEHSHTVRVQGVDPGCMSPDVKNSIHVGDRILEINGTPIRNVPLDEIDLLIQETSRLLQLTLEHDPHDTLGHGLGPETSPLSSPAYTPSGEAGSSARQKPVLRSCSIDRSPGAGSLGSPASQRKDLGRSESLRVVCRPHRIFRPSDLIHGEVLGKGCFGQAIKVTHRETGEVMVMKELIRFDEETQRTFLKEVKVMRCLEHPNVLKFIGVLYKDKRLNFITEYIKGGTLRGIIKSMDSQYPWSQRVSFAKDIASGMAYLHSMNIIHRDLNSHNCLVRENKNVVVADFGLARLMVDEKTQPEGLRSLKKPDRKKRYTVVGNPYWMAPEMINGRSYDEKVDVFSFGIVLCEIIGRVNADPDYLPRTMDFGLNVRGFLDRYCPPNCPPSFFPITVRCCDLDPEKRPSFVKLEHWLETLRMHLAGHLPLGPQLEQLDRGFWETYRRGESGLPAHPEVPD
Chain of UniProt P42336 (whole entry, unmodified, looked up): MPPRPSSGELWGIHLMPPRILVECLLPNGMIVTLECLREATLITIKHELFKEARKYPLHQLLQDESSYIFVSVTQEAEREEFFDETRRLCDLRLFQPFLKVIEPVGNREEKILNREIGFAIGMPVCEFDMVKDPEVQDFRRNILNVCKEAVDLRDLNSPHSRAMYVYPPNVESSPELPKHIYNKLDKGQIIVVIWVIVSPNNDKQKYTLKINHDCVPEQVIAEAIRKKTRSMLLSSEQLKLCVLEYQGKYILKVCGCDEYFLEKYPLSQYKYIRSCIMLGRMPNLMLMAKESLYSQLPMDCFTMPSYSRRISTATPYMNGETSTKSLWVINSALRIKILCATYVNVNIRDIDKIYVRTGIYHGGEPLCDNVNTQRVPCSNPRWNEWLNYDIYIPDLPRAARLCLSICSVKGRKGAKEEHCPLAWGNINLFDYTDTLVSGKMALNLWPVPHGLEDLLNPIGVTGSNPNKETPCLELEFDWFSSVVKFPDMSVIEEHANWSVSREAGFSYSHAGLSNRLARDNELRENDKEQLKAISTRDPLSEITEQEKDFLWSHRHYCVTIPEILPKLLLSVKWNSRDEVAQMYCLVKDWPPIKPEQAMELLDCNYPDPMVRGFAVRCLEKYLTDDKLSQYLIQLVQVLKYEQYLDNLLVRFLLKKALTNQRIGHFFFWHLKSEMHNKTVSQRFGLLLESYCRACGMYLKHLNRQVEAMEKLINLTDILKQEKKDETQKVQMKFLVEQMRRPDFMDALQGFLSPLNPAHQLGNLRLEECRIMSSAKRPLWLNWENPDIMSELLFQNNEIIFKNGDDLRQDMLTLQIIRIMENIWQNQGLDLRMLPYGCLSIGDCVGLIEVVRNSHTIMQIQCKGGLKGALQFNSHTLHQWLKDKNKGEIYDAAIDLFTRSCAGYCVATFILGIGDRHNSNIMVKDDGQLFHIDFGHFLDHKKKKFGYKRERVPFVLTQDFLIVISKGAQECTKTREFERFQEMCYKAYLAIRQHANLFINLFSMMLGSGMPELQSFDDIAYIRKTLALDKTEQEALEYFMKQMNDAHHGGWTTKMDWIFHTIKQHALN
Chain of UniProt Q96S53 (whole entry, looked up): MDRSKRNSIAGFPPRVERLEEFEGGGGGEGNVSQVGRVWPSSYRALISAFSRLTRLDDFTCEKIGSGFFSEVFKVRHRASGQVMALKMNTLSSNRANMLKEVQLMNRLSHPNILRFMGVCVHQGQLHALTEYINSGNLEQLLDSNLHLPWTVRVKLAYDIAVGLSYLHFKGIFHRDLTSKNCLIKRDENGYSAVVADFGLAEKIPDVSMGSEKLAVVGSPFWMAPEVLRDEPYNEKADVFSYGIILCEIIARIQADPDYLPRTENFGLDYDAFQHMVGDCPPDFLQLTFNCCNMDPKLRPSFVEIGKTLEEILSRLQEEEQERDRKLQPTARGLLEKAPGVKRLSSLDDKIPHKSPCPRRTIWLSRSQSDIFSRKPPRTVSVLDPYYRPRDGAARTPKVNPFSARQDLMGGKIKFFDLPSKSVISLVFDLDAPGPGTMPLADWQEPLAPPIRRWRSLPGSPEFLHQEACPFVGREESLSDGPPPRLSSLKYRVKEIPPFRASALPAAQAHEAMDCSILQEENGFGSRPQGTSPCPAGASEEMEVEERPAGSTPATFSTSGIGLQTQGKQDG
Chain of UniProt P15056 (whole entry, looked up): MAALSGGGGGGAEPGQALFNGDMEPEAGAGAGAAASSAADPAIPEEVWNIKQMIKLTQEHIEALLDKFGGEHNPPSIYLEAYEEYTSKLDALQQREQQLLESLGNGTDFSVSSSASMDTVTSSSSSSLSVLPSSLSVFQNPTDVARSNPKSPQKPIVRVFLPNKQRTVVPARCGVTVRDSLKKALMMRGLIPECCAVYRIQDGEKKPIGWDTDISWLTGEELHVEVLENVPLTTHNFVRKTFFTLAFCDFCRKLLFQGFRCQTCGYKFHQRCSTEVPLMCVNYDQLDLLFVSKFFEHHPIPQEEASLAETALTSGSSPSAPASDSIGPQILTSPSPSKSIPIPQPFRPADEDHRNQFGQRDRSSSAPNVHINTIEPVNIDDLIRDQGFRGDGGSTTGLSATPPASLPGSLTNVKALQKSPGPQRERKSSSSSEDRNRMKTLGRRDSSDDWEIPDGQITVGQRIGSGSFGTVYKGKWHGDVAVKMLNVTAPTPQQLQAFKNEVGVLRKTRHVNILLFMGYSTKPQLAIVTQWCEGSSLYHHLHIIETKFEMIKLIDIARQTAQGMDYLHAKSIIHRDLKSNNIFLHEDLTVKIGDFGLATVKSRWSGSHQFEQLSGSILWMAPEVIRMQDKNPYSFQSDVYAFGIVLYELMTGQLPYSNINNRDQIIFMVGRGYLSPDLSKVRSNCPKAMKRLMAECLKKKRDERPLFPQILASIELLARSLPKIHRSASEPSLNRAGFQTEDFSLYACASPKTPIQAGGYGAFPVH

Block 1 — organism: Sarcocystis neurona; effect on: parasite activity; tested at: 10 µM; time: 96 h
`CCC(=O)NS(=O)(=O)c1ccc(-c2c(-c3ccccc3)noc2C)cc1`: activity class “inactive”.
For `CS(=O)(=O)c1ccc(-c2cc(Br)sc2-c2ccc(F)cc2)cc1`, activity class read “inactive”.
`O=C(O)COCCN1CCN([C@H](c2ccccc2)c2ccc(Cl)cc2)CC1` — result for activity class: “inactive”.
Under activity class, `CN(C)c1nc(N(C)C)nc(N(C)C)n1` is recorded as “inactive”.
`CC(=O)O[C@H]1C[C@@H]2CC[C@@H]3[C@H](CC[C@@]4(C)[C@H]3C[C@H]([N+]3(C)CCCCC3)[C@@H]4OC(C)=O)[C@@]2(C)C[C@@H]1N1CCCCC1` — result for activity class: “inactive”.
Under activity class, `Cn1nnc2c(C(N)=O)ncn2c1=O` is recorded as “inactive”.
Under activity class, `O=C1CN2Cc3c(ccc(Cl)c3Cl)N=C2N1` is recorded as “inactive”.
Under activity class, `COc1ccccc1OCC(O)COC(N)=O` (stereo not drawn) is recorded as “inactive”.
`CO[C@H]1/C=C/O[C@@]2(C)Oc3c(C)c(O)c4c(O)c(c(/C=N/N5CCN(C)CC5)c(O)c4c3C2=O)NC(=O)/C(C)=C\C=C\[C@H](C)[C@H](O)[C@@H](C)[C@@H](O)[C@@H](C)[C@H](OC(C)=O)[C@@H]1C` — result for activity class: “inactive”.
For `CC1(C)S[C@@H]2[C@H](NC(=O)[C@H](N)c3ccc(O)cc3)C(=O)N2[C@H]1C(=O)O`, activity class read “inactive”.

Block 2 — effect on: enzyme activity; tested at: 5 µM; reference: untreated control
SMILES: O=C(Nc1cnn(-c2csc(C(=O)NC3COC3)c2)c1)Nc1ccccc1Cl
AKT3 (Homo sapiens, UniProt Q9Y243) — remaining activity: 84.5%.
BRAF (Homo sapiens, UniProt P15056) — remaining activity: 86.4%.
NEK4 (Homo sapiens, UniProt P51957) — remaining activity: 107%.
ITK (Homo sapiens, UniProt Q08881) — remaining activity: 99.3%.
The remaining activity was 91.8% (TESK2 (Homo sapiens, UniProt Q96S53)).
The remaining activity was 116% (STK3 (Homo sapiens, UniProt Q13188)).
For JAK1 (Homo sapiens, UniProt P23458): remaining activity read 94.4%.
It gave 109% for remaining activity (Cyclin-dependent kinase 6, with cyclin D3 (CDK6, Homo sapiens, UniProt Q00534)).
IRAK4 (Homo sapiens, UniProt Q9NWZ3) — remaining activity: 88.1%.
The remaining activity was 87.9% (LRRK2 (Homo sapiens, UniProt Q5S007)).

Block 3 — effect on: enzyme activity; action: inhibitor; tested at: 0.5 µM; reference: control
Target: Serine/threonine-protein kinase 3 (STK3, Homo sapiens, UniProt Q13188)
Residues (Q13188 1-491): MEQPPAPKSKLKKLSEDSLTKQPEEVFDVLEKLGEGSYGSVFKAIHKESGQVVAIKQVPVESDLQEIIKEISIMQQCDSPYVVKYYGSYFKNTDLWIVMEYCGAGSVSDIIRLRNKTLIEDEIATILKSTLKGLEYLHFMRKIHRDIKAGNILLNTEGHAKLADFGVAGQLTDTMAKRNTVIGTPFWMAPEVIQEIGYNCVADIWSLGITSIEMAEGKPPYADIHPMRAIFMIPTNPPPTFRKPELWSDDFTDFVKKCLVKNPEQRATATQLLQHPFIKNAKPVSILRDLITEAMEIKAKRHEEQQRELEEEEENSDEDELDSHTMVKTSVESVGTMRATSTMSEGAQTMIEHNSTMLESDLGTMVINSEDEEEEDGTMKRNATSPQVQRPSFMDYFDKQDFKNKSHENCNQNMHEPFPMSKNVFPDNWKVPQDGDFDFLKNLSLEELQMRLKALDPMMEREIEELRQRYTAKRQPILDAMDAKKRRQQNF
For `O=Nc1c(-c2c(O)[nH]c3cc(Br)ccc23)[nH]c2ccccc12`, the remaining activity was 20.5%.
`O=C1Cc2c([nH]c3ccc(Br)cc23)-c2ccccc2N1` gave a remaining activity of 83.2%.
For `COc1ccc(COc2ccc(Cc3cnc(N)nc3N)cc2OC)cc1`, the remaining activity was 98.4%.
`O=C1Nc2ccccc2/C1=C\c1c(Cl)[nH]c2ccccc12` gave a remaining activity of 89.1%.
With `Oc1cccc(-c2nc(N3CCOCC3)c3oc4ncccc4c3n2)c1` the remaining activity was 105%.
`CCCCc1c(-c2ccc(OC)cc2)[nH]c2nccnc12` has a remaining activity of 87%.
For `COc1cccc(-c2cc(=O)c3ccccc3o2)c1N`, the remaining activity was 97.1%.
`c1ccc2c(-c3ccncc3)c[nH]c2c1` gave a remaining activity of 112%.
For `O=C1NC(=O)c2c1c1c3ccccc3[nH]c1n1cncc21`, the remaining activity was 41%.

Block 4 — effect on: cell-free assay; method: competition with immobilised ligand; tested at: 1 µM
SMILES: O=C(NS(=O)(=O)c1ccc(NCC2CCOCC2)c([N+](=O)[O-])c1)c1ccc(N2CCN(Cc3ccc(C(F)(F)F)cc3-c3ccc(Cl)cc3)CC2)cc1Oc1cnc2[nH]ccc2c1
The remaining binding was 100% (LATS1 (Homo sapiens, UniProt O95835)).
For PIK3CA (Homo sapiens, UniProt P42336, H1047L): remaining binding read 85%.
The remaining binding was 85% (LIM domain kinase 1 (LIMK1, Homo sapiens, UniProt P53667)).
For FES (Homo sapiens, UniProt P07332): remaining binding read 100%.
It gave 100% for remaining binding (MAPK6 (Homo sapiens, UniProt Q16659)).
The remaining binding was 81% (CDK5 (Homo sapiens, UniProt Q00535)).
PI4KB (Homo sapiens, UniProt Q9UBF8) — remaining binding: 79%.
It gave 100% for remaining binding (STK17B (Homo sapiens, UniProt O94768)).
It gave 92% for remaining binding (TYRO3 (Homo sapiens, UniProt Q06418)).
PNCK (Homo sapiens, UniProt Q6P2M8) — remaining binding: 0%.
It gave 100% for remaining binding (EPHB3 (Homo sapiens, UniProt P54753)).
For EPHA2 (Homo sapiens, UniProt P29317): remaining binding read 92%.
The remaining binding was 100% (BUB1 (Homo sapiens, UniProt O43683)).
CDK9 (Homo sapiens, UniProt P50750) — remaining binding: 100%.
CDK4 (Homo sapiens, UniProt P11802) — remaining binding: 100%.
It gave 100% for remaining binding (DAPK1 (Homo sapiens, UniProt P53355)).

Some of these lines once more (block 2):
For JAK1 (Homo sapiens, UniProt P23458): remaining activity read 94.4%.
ITK (Homo sapiens, UniProt Q08881) — remaining activity: 99.3%.
The remaining activity was 116% (STK3 (Homo sapiens, UniProt Q13188)).
